Measured values pooled from the literature.
A part holds a random share of what one study measured.

Set 1
Target: RNA binding protein fox-1 homolog 2, RRM domain, GST-SBP tag (RBFOX2, Homo sapiens, UniProt O43251-10, residues 100-194)
Method: RNA Bind-n-Seq
Form: RNA
Matrix: in vitro
Tested at: 365 nM
Setting: natural RNA segment, single round, ends assumed
Reference: no-protein control
Reading: higher = stronger binding
Construct (chain): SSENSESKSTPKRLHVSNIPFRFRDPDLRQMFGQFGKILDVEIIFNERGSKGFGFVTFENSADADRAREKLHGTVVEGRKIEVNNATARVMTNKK
Strand | RBNS enrichment (R)
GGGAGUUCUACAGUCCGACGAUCGCAUCCGGGUCACUCCUUCUCCGCUUUUUCUUGCAGAUGGGCCUAGGCCGGUGUCGGUUCUGUUUCUCCCCUUGGCUGCCUGUACGCCCACAGCCUUCUGGCUGCGACAUUGGAAUUCUCGGGUGCCAA | 0.221
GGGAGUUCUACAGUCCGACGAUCCAGCCAUGAAGUGUCACCAGUAUCUACUACUGUGAAGUCAGCUGUGCUGUUUUCCAUUCGCUUCCACGGCUUCUGCCUCCUGCCAUAAAACCAGCGAGUGUCGUGGUGCAUGGAAUUCUCGGGUGCCAA | 0.323
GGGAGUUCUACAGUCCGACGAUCCUCCUGUUUGCCAGGGGAAAGAACCUAAAGACUUCGUGUGAUUGGGAGGGGUGGCAGACAGGAAGAAAACAUGUCCAGGCCCCUGGUCUCCAUAGAGAAUGGUGCUUUGUUGGAAUUCUCGGGUGCCAA | 1.13
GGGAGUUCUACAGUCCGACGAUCAUUUUGCAUUUAAAAUGUAAUUACUCUUAGUAUUGUACAGCCCUAUAAUGUAUGAGAACUAGUUUCACAUCCUUUGAAACUAAUCUCUUUCAUUGGGGAGGAUACAACUUUGGAAUUCUCGGGUGCCAA | 0.239
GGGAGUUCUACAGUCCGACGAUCUUUGUACUAAAGUUUAUAGGUCUGUGCCAGCUAGAGAGAAGUUGCUGUCAUUACCAGUUGUGGUCCUAGCAUCUAACCCUGAAACCAUCCUAGGUGACAUUUUUAGAAUUUGGAAUUCUCGGGUGCCAA | 0.293
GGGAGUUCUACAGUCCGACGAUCCGAUAUGUCUGUCCAUCUUUCUCCUUUCUUCCAGCACACACAGCUAAGAGAUAAGAAGGCUGCAAGGAUUGGGGAUAAGGAGUAUAUUUUCAAGCCAAGAACCAGUAGAAUGGAAUUCUCGGGUGCCAA | 0.488
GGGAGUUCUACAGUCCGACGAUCCCUUCUGACACACAAAAAAAUGAAAGUUAAUCCUGGGUACAGCAUACAGUUUUACAUUUAAACGCACAGUCUUACGUGGACAAAUGCAAGCACAAGCCUAAAGCAAGGUCUGGAAUUCUCGGGUGCCAA | 0.289
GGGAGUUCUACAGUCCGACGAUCGUGGGUGUUUGCCGGCCAGAUCUUUCCUGGCAUGCGGACUGUGAGGCAAAGCACGGGUGAAGGUAGGCGCUAAAGGCUUUGGGCUAAAGCCAGCACGCGGUUCUGUGCUAUGGAAUUCUCGGGUGCCAA | 1.72

Set 2
Target: Histone acetyltransferase KAT6A, winged helix 1, GST fusion (KAT6A, Homo sapiens, UniProt Q92794, residues 1-85)
Method: protein binding microarray
Form: double-stranded DNA, one strand shown
Matrix: in vitro
Tested at: not given
Setting: 8-mer, flanks averaged, mean of 2 arrays, mostly near background
Reference: not given
Reading: higher = stronger binding
Target sequence (chain): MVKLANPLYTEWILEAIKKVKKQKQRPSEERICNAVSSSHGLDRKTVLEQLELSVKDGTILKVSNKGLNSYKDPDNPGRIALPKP
Strand | E-score
AATTGCCG | 0.332
ACGCCCCC | 0.15
AAAGTCAA | -0.14
AGATTATA | -0.0156
AGTTTCAC | -0.0851
AGAAACAC | -0.0553
TAGGCGCA | 0.0777
CCGGCCGG | 0.451
GCGCTAGC | 0.255
CTAAACAA | -0.229
CTTTACTA | -0.0447
CGTCAAGC | 0.0361
ATCCTTGC | -0.0924
CTATTACC | 0.0246
CATTAAGG | -0.0206
ACGAAAGT | -0.121
CCCTACGC | 0.193

Set 3
Target: Interferon regulatory factor 5, full length, phosphomimetic (IRF5, Homo sapiens, UniProt Q13568-2, residues 1-514, S451D/S453D/S456D/S462D)
Method: protein-binding microarray
Form: double-stranded DNA, one strand shown
Matrix: in vitro
Tested at: 940 nM top
Setting: 60-bp whole probe
Together with: salmon DNA 0.4 mg/ml
Reference: random background probes
Reading: higher = stronger binding
Constant ends, left off below: GCCTAGCAC … GTCTTGATTCGCTTGACGCTGCTG
Strand | fitted relative affinity
GACGATCTTAGTCTCGAGACGTGCTAG | 1.16 z-score
TCATGCTTGTGTTTATTACTGTGCTAG | 0.426 z-score
CTAGGTATCCTACTGCTTTAGTGCTAG | -0.0945 z-score
TCATTTCTCTGGTTCTTACTGTGCTAG | 1.58 z-score
ACCATTCTCGGGACTCACCTGGTGCTA | 2.61 z-score
GACGATTCCAGATTCGAGACGTGCTAG | -0.00743 z-score
TGTGTTGCAGAAACGCCATGGTGCTAG | -0.308 z-score
TCAAATATTCATTTTATACTGTGCTAG | 0.462 z-score
TTAGATATCGGGACTGGATTAGTGCTA | -0.0337 z-score

Set 4
Target: Ras GTPase-activating protein-binding protein 1, RRM domain (G3BP1, Homo sapiens, UniProt Q13283)
Sequence of UniProt Q13283 (whole entry, looked up): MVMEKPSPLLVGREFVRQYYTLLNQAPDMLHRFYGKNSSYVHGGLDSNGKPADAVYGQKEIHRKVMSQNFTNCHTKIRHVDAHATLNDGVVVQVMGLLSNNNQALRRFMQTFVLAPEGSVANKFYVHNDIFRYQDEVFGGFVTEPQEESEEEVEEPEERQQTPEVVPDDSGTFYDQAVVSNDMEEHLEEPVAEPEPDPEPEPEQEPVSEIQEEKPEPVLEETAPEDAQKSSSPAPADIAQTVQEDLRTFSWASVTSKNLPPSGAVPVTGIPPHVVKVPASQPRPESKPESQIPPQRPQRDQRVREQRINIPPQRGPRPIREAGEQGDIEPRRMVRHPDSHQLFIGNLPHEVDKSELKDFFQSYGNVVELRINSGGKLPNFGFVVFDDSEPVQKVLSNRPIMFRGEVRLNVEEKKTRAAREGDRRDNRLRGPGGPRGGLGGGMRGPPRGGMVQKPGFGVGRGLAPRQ
Method: RNA Bind-n-Seq
Form: RNA
Matrix: in vitro
Tested at: 1 µM
Setting: whole 134-nt RNA, ends assumed
Together with: 150 mM KCl
Reference: input library
Reading: higher = stronger binding
Strand | log2 enrichment
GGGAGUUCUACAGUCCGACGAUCAAGUCCUGUGCUACACAUCGUAUGUACCGAAUCGGGGUUUGGGUUUGGGGUUUGGGAAAGUAUUAUGUUACGCCGUUCGGAUCUGCACUUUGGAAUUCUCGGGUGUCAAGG | 0.459
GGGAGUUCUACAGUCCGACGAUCGUCCUGUGCUACACAUCGUAUGUACCGAAUCGGGUUUUUGGGGUUUUUGGGGUUUUUGGAAAGUAUUAUGUUACGCCGUUCGGAUCUGCAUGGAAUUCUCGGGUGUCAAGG | -0.214
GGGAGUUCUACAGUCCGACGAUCCUCAAGUCCUGUGCUACACAUCGUAUGUACCGAAUCGGGGUGGGUGGGGUGGGAAAGUAUUAUGUUACGCCGUUCGGAUCUGCACUUCCAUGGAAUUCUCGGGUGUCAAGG | -0.0764
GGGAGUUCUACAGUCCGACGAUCCCUGUGCUACACAUCGUAUGUACCGAAUCGGCCCCCCGGGGCCCCCCGGGGCCCCCCGGGAAAGUAUUAUGUUACGCCGUUCGGAUCUGCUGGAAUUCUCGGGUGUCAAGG | -0.702
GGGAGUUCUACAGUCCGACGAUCAGUCCUGUGCUACACAUCGUAUGUACCGAAUCGGAAAAGGGGAAAAGGGAAAAGGGGAAAGUAUUAUGUUACGCCGUUCGGAUCUGCACUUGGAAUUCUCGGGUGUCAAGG | 0.24
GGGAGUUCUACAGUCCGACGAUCAGUCCUGUGCUACACAUCGUAUGUACCGAAUCGGGGUUUUUUUGGGGAGGGGUGGGGAAAGUAUUAUGUUACGCCGUUCGGAUCUGCACUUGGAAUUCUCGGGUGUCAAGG | 0.822
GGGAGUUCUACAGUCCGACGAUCACCAUGCAGGUGGGCAUCUUUGGGAAGUGGGGCAAGGGGGGGAUAGGGAGGGGGGUAACCCUUUGGGAACAGGUGGUCCCAGGUCGUUUCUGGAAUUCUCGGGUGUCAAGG | 1.04
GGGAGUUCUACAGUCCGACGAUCAAGUCCUGUGCUACACAUCGUAUGUACCGAAUCGGGGAGGGGUUUGGGGUUUGGGGAAAGUAUUAUGUUACGCCGUUCGGAUCUGCACUUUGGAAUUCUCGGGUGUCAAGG | 0.867
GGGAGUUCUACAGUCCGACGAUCCACAGACAACACGCACCCACACAGACACAGAGGGAAGGGGUUGGGAGGGGGACAGGGUGCACAGCAGGGCGGGGUAGGACCCCAGCCCCUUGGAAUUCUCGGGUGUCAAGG | -0.0536

Set 5
Target: Sal-like protein 4, full length isoform B (SALL4, Homo sapiens, UniProt Q9UJQ4-2, residues 1-616)
Method: universal PBM
Form: double-stranded DNA, one strand shown
Matrix: in vitro
Tested at: not given
Setting: 8-mer, flanks averaged, mean of replicates
Reading: higher = stronger binding
Strand | E-score
ATGAAATC | 0.288
ACACTAAG | 0.111
ACGGAACG | -0.11
AATACAAT | 0.315
ACGTAAAC | 0.0223
ATTACAAA | 0.356
CGCCCGAA | -0.163
CTGTACGA | 0.0653
GGGAACCA | -0.215
AAGGCGGA | -0.144
ACTTATGA | 0.318
GAATTGAC | 0.0366
CGAAAGAA | 0.0793

Further values, each from its own experiment
Substance | target | test | test system | conditions | scale | measurement | value
PhoQ, residues 284 288 289 292 302 303 QWGLFV | PhoP, residues 12 14 15 18 19 NYFTV (Escherichia coli, UniProt P23836) | Sort-seq, item: YFP reporter | E. coli | PhoQ-PhoP variant library, together with: 10 µM Mg2+ | reference: high Mg2+ state, higher = stronger signaling | fold induction | 1.72

A few entries again (set 2):
Strand | E-score
TAGGCGCA | 0.0777
CCGGCCGG | 0.451
GCGCTAGC | 0.255
